Published values collected from several papers.
Compare with care: the assays were run in different laboratories.

Compound | assay | test system | conditions | measurement | value
CNC(=O)c1ccc(-c2cnc3ncc(Cc4ccc5ncccc5c4)n3n2)cc1F | – | healthy human subjects | oral, 400 mg, Nausea, grade 3, all causality, with: rifampicin 600 mg/day | subjects with adverse event | 0%
CN1CCN(c2cccc3c2CCN(C(=O)/C=C/c2c(-n4cnnn4)ccc(Cl)c2F)[C@@H]3C(=O)Nc2ccc(C(=O)O)cc2)C(=O)C1 | – | healthy human subjects | intravenous infusion, 10 mg/h, 2 h | subjects with serious adverse event | 0%
C[C@H]1CN(C(=O)CC#N)[C@]12CCN(c1ncnc3[nH]ccc13)C2 | – | healthy human | oral, 3 mg single | subjects with Dizziness | 0%
Cc1cc(-c2nccc3c2ccn3CC(=O)Nc2ccc(-c3cnccn3)cn2)ccn1 | – | human | 5 mg once daily, multiple ascending dose | subjects with Costochondritis adverse event | 0%
C[C@@H](Oc1ccc(S(C)(=O)=O)cc1C(=O)N1C[C@@H]2C[C@]2(c2cc(C(F)(F)F)on2)C1)C(F)(F)F | – | human | oral, 25 mg | subjects with abdominal discomfort | 16.7%
CC(C)(C(=O)N1CCOc2c(C#N)cncc2C1)C(F)F | item: nervous system disorders | human | oral, 10 mg, CSF pharmacokinetic cohort | subjects with adverse event | 66.7%
Cc1cc(Nc2cc3ncccc3c(N[C@@H]3C[C@H]4CC[C@@H](C3)N4CCC#N)n2)n[nH]1 | – | healthy human | oral, 300 mg single dose, 2 weeks | subjects with contact dermatitis | 17%
C[C@@H](c1nc(-c2ccc(C#N)cc2)cs1)[C@](O)(Cn1cncn1)c1cc(F)ccc1F | any adverse event | human | oral, dose not given, with: ethinyl estradiol/norethindrone | subjects with adverse event | 26.1%

Some of these lines once more:
Compound | assay | test system | conditions | measurement | value
CC(C)(C(=O)N1CCOc2c(C#N)cncc2C1)C(F)F | item: nervous system disorders | human | oral, 10 mg, CSF pharmacokinetic cohort | subjects with adverse event | 66.7%
